Measured values gathered from unrelated publications.
Lines come from different studies, so protocols differ. pIC50: −log10 of the molar value. In brackets after ≈: the same amount, converted by molar mass.

`CC#N.[Cl][Mn-2]([Cl])([Cl])[Cl].[Mn+2].c1ccc(CN2CCCN3CCCN(CCCN(Cc4ccccc4)CC3)CC2)cc1` gave a pIC50 of 5.82 (Leishmania donovani; parasite growth, resazurin; 72 h, amastigote).
`COc1ccc(-c2ccc3oc(-c4ccc(OC)cc4)c(C#CC4(O)CCCCC4)c3c2)cc1` gave a remaining activity of 86.1% (hepatitis C virus; viral entry, HCV pseudoparticle entry; genotype 1a; 10 µM; reference: DMSO).
`CC1(C)C(C=C(Cl)Cl)C1C(=O)OCc1c(F)ccc(F)c1F` (stereo not shown) has a resistance ratio of 5.77 (Anopheles funestus; glazed tile contact bioassay; FUMOZ-R resistant; 24 h; reference: LC50 FUMOZ-R over LC50 FANG).
`S=C(NCc1ccccn1)NCc1ccccn1`: “inhibition zone diameter” 26 mm (Agrobacterium tumefaciens; 30 µg/mL).
`COc1cc(-c2ccc3oc(-c4ccsc4)c(C#CC4(O)CCCCC4)c3c2)cc(OC)c1OC` has a remaining activity of 80.3% (hepatitis C virus; viral entry, HCV pseudoparticle entry; genotype 1a; 10 µM; reference: DMSO).
The IC90 of `CC(=O)[O-].F[P-](F)(F)(F)(F)F.[Ni+2].c1ccc(CN2CCN3CCN(CC2)CCN(Cc2ccccc2)CC3)cc1` is reported as over 20 µM (Leishmania donovani; parasite growth, resazurin; 72 h, promastigote).
For `CCCCCCC(CC=CCCCCCCCC(=O)OCCOCn1cnc2c(=O)[nH]c(N)nc21)OC(=O)CCCCC1SCC2NC(=O)NC21` (stereo not shown), the EC90 was 41.5 µM (Epstein-Barr virus; viral DNA accumulation, DNA hybridization; Akata; 72 h).
`CC1(C)NCCC[C@]2(C)[C@H]3CC=C4[C@@H]5C[C@@](C)(CO)CC[C@]5(C)CC[C@@]4(C)[C@]3(C)CC[C@@H]12` gave a selectivity index of under 1 (Human papillomavirus 11; viral replication; C-33 A; reference: CC50 over EC50).
The IC90 of `CC(=O)[O-].CN1CCN2CCN(CC1)CCN(Cc1ccccc1)CC2.F[P-](F)(F)(F)(F)F.[Cu+2]` is reported as over 20 µM (Leishmania donovani; parasite growth; THP-1 macrophages; intracellular amastigotes).
`CN[C@@H]1[C@H](O)[C@H](NC)[C@H]2O[C@]3(O)[C@H](O[C@@H]2[C@H]1O)O[C@H](C)C[C@@]3(O)CNCc1ccc(F)cc1` — result for “inhibition zone diameter”: 19 to 20 mm (Neisseria meningitidis; ATCC 13077; 40 µg per disc).
`[O-][N+]1=C(c2ccc(Cl)cc2)C2=NCCCCN2c2ccccc21` has an MIC of 0.25 µg/mL (≈ 0.767 µM) (Finegoldia magna).
For `COc1ccc(S(=O)(=O)NCc2c[nH]nc2-c2cccs2)cc1`, “days to recrudescence” read 40 days (Plasmodium falciparum; single-step resistance selection; Dd2-B2).
`Oc1cc(C(F)(F)F)ccc1-c1nc2c(C(F)(F)F)cc(C(F)(F)F)cc2[nH]1` — result for “MIC of colistin”: 0.5 µg/mL (Acinetobacter baumannii; colistin potentiator; AB 3941, colistin-resistant; 5 µM).
`[Cl-].[Cl-].[Mn+2].c1ccc(CN2CCNCCN(Cc3ccccc3)CCNCC2)cc1` gave a pIC50 of 5.55 (Leishmania donovani; parasite growth, resazurin; 72 h, promastigote).
For `CCN1CCNC1=[S+][Ag-3]([O][N+](=O)[O-])([P+](c1ccccc1)(c1ccccc1)c1ccccc1)[P+](c1ccccc1)(c1ccccc1)c1ccccc1`, “inhibition zone diameter” read 30 mm (Staphylococcus epidermidis; MTCC 435, DMSO; 0.1 mL of 50 mg/mL in 8 mm well, 18 to 24 h).
`[O-][N+]1=C(c2ccc(Cl)cc2)C2=NCCCN2c2ccccc21` has an MIC of 2 µg/mL (≈ 6.41 µM) (Finegoldia magna).
`CC(=O)[O-].F[P-](F)(F)(F)(F)F.[Co+2].c1ccc(CN2CCCN3CCN(CCCN(Cc4ccccc4)CC3)CC2)cc1` has an IC90 of over 15 µM (Leishmania donovani; parasite growth, resazurin; 72 h, amastigote).
`Cc1ccc(N(C)c2cc(N(C)C3CC3)n3ncc(C#N)c3n2)cc1NC(=O)C1CC1` — result for antiviral activity: “inactive” (murine coronavirus; viral replication; MHV-nLuc; concentration not given).
`CC(=O)[O-].F[P-](F)(F)(F)(F)F.[Co+2].c1ccc(CN2CCCNCCN(Cc3ccccc3)CCCNCC2)cc1` has an IC90 of over 15 µM (Leishmania donovani; parasite growth, resazurin; 72 h, promastigote).
`CN[C@](C)(C[18F])C(=O)O` has a tracer uptake of 2.1 %ID/g (A549 tumour model; host not given, bone; 30 min, tumour-bearing).
For `CN1CC(=O)N=C1N.C[C@H](CCC(=O)O)[C@H]1CC[C@H]2[C@@H]3[C@@H](O)C[C@@H]4C[C@H](O)CC[C@]4(C)[C@H]3CC[C@]12C`, antibacterial activity read “inactive” (Shigella flexneri; ATCC 9199; 1 mg per disc, 18 to 24 h, 37 °C).
`CCn1c(-c2ccc(OC)cc2)c(-c2ccc(OC)cc2)n(CC)c1=[Se+][Au-][P+](CC)(CC)CC.[Cl-]` — result for “proinflammatory gene expression”: “decreased” (Acinetobacter baumannii, carbapenem-resistant; item: IL-6, TNF-alpha; BALB/c mouse, skin wound infection, wound tissue; dose not given, day 14; reference: untreated infected).
With `CC[C@H](C)[C@H](NC(=O)[C@H](CCCCN)NC(=O)[C@H](CCCCN)NC(=O)[C@H](CC(C)C)NC(=O)[C@H](CCCCN)NC(=O)[C@H](CCC(=O)O)NC(=O)[C@H](CCCCN)NC(=O)[C@@H](NC(=O)[C@H](CCCCN)NC(=O)[C@H](CC(N)=O)NC(=O)[C@H](CCCNC(=N)N)NC(=O)[C@H](Cc1ccccc1)NC(=O)[C@H](CCCCN)NC(=O)[C@H](CCCNC(=N)N)NC(=O)[C@H](CC(C)C)NC(=O)[C@H](CCCNC(=N)N)NC(=O)[C@H](CCCCN)NC(=O)[C@H](CCCNC(=N)N)NC(=O)[C@H](CC(C)C)NC(=O)[C@@H](N)CCCNC(=N)N)[C@@H](C)CC)C(=O)NCC(=O)N[C@@H](CCC(N)=O)C(=O)N[C@@H](CCCCN)C(=O)N[C@H](C(=O)N[C@@H](CCC(N)=O)C(=O)NCC(=O)N[C@@H](Cc1ccccc1)C(=O)N[C@H](C(=O)N1CCC[C@H]1C(=O)N[C@@H](CCCCN)C(=O)N[C@@H](CC(C)C)C(=O)N[C@@H](CCC(N)=O)C(=O)N1CCC[C@H]1C(=O)N[C@@H](CO)C(=O)N[C@@H](CCCCN)C(=O)N[C@@H](CCC(N)=O)C(=O)N[C@@H](CO)C(=O)O)C(C)C)[C@@H](C)CC` the lethal concentration was 10.7 µM (Stenotrophomonas maltophilia; inhibition zone; CGMCC 1.179; LB agar, overnight).
`COc1ccc(-c2oc3ccc(-c4cc(OC)c(OC)c(OC)c4)cc3c2C#CC2(O)CCCCC2)cc1` has a remaining activity of 77% (hepatitis C virus; viral entry, HCV pseudoparticle entry; genotype 1b; 10 µM; reference: DMSO).
`Nc1ccn(C[C@@H](CO)OCP(=O)(O)OCCCS(=O)(=O)CCCCCCCCCCCCCC2CCC2)c(=O)n1` has a selectivity index of 356 (human gammaherpesvirus 4; qPCR; Akata; reference: CC50 over EC50).
`CC(=O)[O-].CN(C)C=O.F[P-](F)(F)(F)(F)F.[Co+2].c1ccc(CN2CCN3CCCN(CC2)CCN(Cc2ccccc2)CC3)cc1` gave an IC90 of over 20 µM (Leishmania donovani; parasite growth, resazurin; 72 h, promastigote).
`CC[C@@H](C)[C@@H](NC(=O)[C@@H](C)NC(=O)[C@@H](CCCCN)NC(=O)[C@@H](CC(C)C)NC(=O)[C@@H](C)NC(=O)[C@H](NC(=O)[C@@H](Cc1c[nH]cn1)NC(=O)[C@@H](CC(C)C)NC(=O)[C@H](NC(=O)[C@H](NC(=O)[C@@H](CCCCN)NC(=O)[C@@H](CCCCN)NC(=O)[C@@H](C)NC(=O)[C@@H](CO)NC(=O)[C@@H](CCCCN)NC(=O)[C@@H](Cc1ccccc1)NC(=O)[C@H](NC(=O)[C@@H](CCCCN)NC(=O)[C@@H](CC(C)C)NC(=O)[C@@H](Cc1ccccc1)NC(=O)[C@@H](CO)NC(=O)[C@@H](CCCCN)NC(=O)[C@@H](Cc1c[nH]c2ccccc12)NC(=O)[C@@H](CCCCN)NC(C)=O)[C@H](C)O)[C@H](C)O)C(C)C)[C@H](C)O)C(=O)N[C@H](CO)C(=O)N[C@H](CO)C(N)=O` gave an MIC50 of 4.7 µg/mL (≈ 1.57 µM) (Rhizomucor; clinical isolate; 48 h, 30 °C).
Under antibacterial activity, `CN1CC(=O)N=C1N.C[C@H](CCC(=O)O)[C@H]1CC[C@H]2[C@@H]3CC[C@@H]4C[C@H](O)CC[C@]4(C)[C@H]3CC[C@]12C` is recorded as “inactive” (Shigella flexneri; ATCC 9199; 1 mg per disc, 18 to 24 h, 37 °C).

For quick reference, copied from above:
`CC(=O)[O-].F[P-](F)(F)(F)(F)F.[Co+2].c1ccc(CN2CCCN3CCN(CCCN(Cc4ccccc4)CC3)CC2)cc1` has an IC90 of over 15 µM (Leishmania donovani; parasite growth, resazurin; 72 h, amastigote).
`Cc1ccc(N(C)c2cc(N(C)C3CC3)n3ncc(C#N)c3n2)cc1NC(=O)C1CC1` — result for antiviral activity: “inactive” (murine coronavirus; viral replication; MHV-nLuc; concentration not given).
`CC(=O)[O-].F[P-](F)(F)(F)(F)F.[Co+2].c1ccc(CN2CCCNCCN(Cc3ccccc3)CCCNCC2)cc1` has an IC90 of over 15 µM (Leishmania donovani; parasite growth, resazurin; 72 h, promastigote).
`CN[C@](C)(C[18F])C(=O)O` has a tracer uptake of 2.1 %ID/g (A549 tumour model; host not given, bone; 30 min, tumour-bearing).
